Measured values from different studies.
Lines come from different studies, so protocols differ. “And” joins repeats or separate records; there may be more than shown. ± marks the error that the study gave.

COc1ccccc1N1CCN(CCCCN2CCCc3ccccc3C2=O)CC1  inhibition (HTR1D (Homo sapiens, UniProt P28221); radioligand binding; concentration not given, together with: [3H]5-CT): 91.5%
N[C@H](C(=O)N1CCCC1)C1CCN(c2nccc3c(-c4ncc(Cl)cc4Cl)cccc23)CC1  inhibition (PADI2 (Homo sapiens, UniProt Q9Y2J8); enzyme activity, GDH-coupled; 0.006291 µM, together with: 1.5 mM Ca2+ (high)): -2.1% and 0.722%
CN(/N=C/c1ccccc1C(=O)O)c1nc(-c2ccccc2Cl)cs1  inhibition (MAPK13 (Homo sapiens, UniProt O15264); enzyme activity, inhibitor; 1 µM): 1.2%
CN[C@@H]1[C@H](O)[C@H](NC)[C@H]2O[C@]3(O)[C@H](O[C@@H]2[C@H]1O)O[C@H](C)C[C@H]3NC(=O)Cc1cc(Cl)ccn1  inhibition (PTGER4 (Homo sapiens, UniProt P35408); ligand displacement, radioligand; 10 µM): -6%
CCC1CC(c2ccc(C(=O)O)cc2C)=NN1c1ccc(C#N)c(Cl)c1 (stereo not shown)  inhibition (EZH2 (Homo sapiens, UniProt Q15910); enzyme activity, inhibitor; 10 µM): 0%
CN[C@@H]1[C@H](O)[C@H](NC)[C@H]2O[C@]3(O)[C@H](O[C@@H]2[C@H]1O)O[C@H](C)C[C@H]3NC(=O)Cc1ccc(Cl)cn1  inhibition (ADRB1 (Homo sapiens, UniProt P08588); ligand displacement, radioligand; 10 µM): 2%
CC[C@@]1(C)Oc2cc(ccc2O)[C@@H](O)[C@H](NC)C(=O)NCC(=O)N[C@@H](C(C)C)C(=O)N[C@@H]1C(=O)NCC(=O)O  inhibition (Tubulin alpha-1A/beta chain (Sus scrofa, UniProt P02550+P02554); tubulin polymerization; concentration not given): no inhibition
O=C(O)CCn1c(=O)oc2cc(Cl)c(Cl)cc21  inhibition (AADAT (Homo sapiens, UniProt Q8N5Z0); enzyme activity, inhibitor; 100 µM): 7%
CS(C)(=O)=Nc1ccc(-c2ccc(-c3nc4cc(O[C@@H]5CO[C@H]6[C@@H]5OC[C@H]6O)[nH]c4cc3F)cc2)cc1  inhibition (KIT (Homo sapiens, UniProt P10721, D816H); enzyme activity, inhibitor; 10 µM): -17%
Cc1cc(Nc2nc(C[C@@]3(C(=O)O)CCN(Cc4cccc(Cl)c4F)[C@H](C)C3)cc(C)c2F)[nH]n1  inhibition (Potassium voltage-gated channel subfamily KQT member 1, with KCNE1 (KCNQ1, Homo sapiens, UniProt P51787); inhibitor; 10 µM): 7.6%
C=CC(=O)Nc1cc(-c2nn(C3CCC(N4CCN(C(C)=O)CC4)CC3)c3ncnc(N)c23)ccc1Oc1ccccc1 (stereo not shown)  inhibition (MAST3 (Homo sapiens, UniProt O60307); inhibitor, KiNativ profiling; biochemical; 2 µM): -3.6%
O=C(O)c1ccccc1/C=N/Nc1nc(-c2ccccc2Cl)cs1  inhibition (ERBB4 (Homo sapiens, UniProt Q15303); enzyme activity, inhibitor; 1 µM): -3.26%
CCCCCCCCCCCCCCCCCC(=O)NC[C@H]1CC[C@H](C(=O)N[C@@H](CCC(=O)NCCCOCCOCCOCCCNC(=O)COCC(=O)N[C@@H](Cc2ccc(O)cc2)C(=O)NC(C)(Cc2ccccc2)C(=O)N[C@@H](CC(C)C)C(=O)N[C@@H](CCCC)C(=O)N[C@@H](CCCNC(=N)N)C(=O)N2CCC[C@H]2C(=O)N[C@@H](CCCNC(=N)NC)C(=O)N[C@@H](CC(N)=O)C(N)=O)C(=O)O)CC1 (stereo partly shown)  inhibition (Apelin receptor (APLNR, Homo sapiens, UniProt P35414); antagonist, DiscoverX GPCR panel; 1 µM): 50%
CC(C)[C@H]1NC(=O)C[C@H]2/C=C/CCSSC[C@@H](NC1=O)C(=O)N[C@H](Cc1cccc3ccccc13)C(=O)NCC(=O)O2  inhibition (DDR1 (Homo sapiens, UniProt Q08345); enzyme activity, inhibitor; 10 µM): -5.1%
COc1ccc(F)cc1S(=O)(=O)Nc1cnc2c(c1)C(=O)NCCO2  inhibition (AGTR1 (Homo sapiens, UniProt P30556); ligand displacement, radioligand; 10 µM): 7%
Cc1ccccc1CCc1nnc([C@H]2OCC[C@H]2Cn2ccnc2)o1  inhibition (Cholinesterase (BCHE, Homo sapiens, UniProt P06276); enzyme activity, inhibitor, Ellman; 10 µM): 37.8%
CN(C)[C@H]1C[C@@]23CC[C@@]4(O2)C(=CC[C@]2(C)[C@@H](c5ccc6ccncc6c5)CC[C@H]24)C=C3[C@@H](O)[C@@H]1O  inhibition (EIF2AK3 (Homo sapiens, UniProt Q9NZJ5); ATP probe labelling, inhibitor, KiNativ profiling; 0.1 µM): -2.1%
C[C@H](NCc1ccc(-c2ccc(C(F)(F)F)cc2)cc1)C(N)=O  inhibition (Aurora kinase A (AURKA, Homo sapiens, UniProt O14965); cell-free assay, competition with immobilised ligand; 1 µM): 20%
O=C1NC2(CC2)COc2ncc(F)cc2[C@H]2COCCN2c2ccn3ncc1c3n2  organ weight (Sprague-Dawley rat, male, thymus; oral, 2.5 mg/kg/day, 4 weeks): 0.617 ± 0.179 g
C/C(=N\OCCCN1CCCCC1)c1ccc(C(F)(F)F)cc1  inhibition (Androgen receptor (AR, Homo sapiens, UniProt P10275); reporter gene, antagonist, luciferase reporter; 10 µM): -4.15%
Cc1ccc2c(n1)c(-c1cccc(S(C)(=O)=O)c1)c(C)n2C/C(F)=C/CN  inhibition (CYSLTR1 (Homo sapiens, UniProt Q9Y271); ligand displacement, radioligand; 10 µM): 8%
O=S(=O)(F)c1cccc(S(=O)(=O)Nc2ccc(N3CCNCC3)c(F)c2)c1  inhibition (GTPase KRas, with RAF (KRAS, Homo sapiens, UniProt P01116); KRAS-RAF interaction, NanoBRET; HEK293T; concentration not given, 24 h): no inhibition

A few entries again:
Cc1cc(Nc2nc(C[C@@]3(C(=O)O)CCN(Cc4cccc(Cl)c4F)[C@H](C)C3)cc(C)c2F)[nH]n1  inhibition (Potassium voltage-gated channel subfamily KQT member 1, with KCNE1 (KCNQ1, Homo sapiens, UniProt P51787); inhibitor; 10 µM): 7.6%
